{"data": "Experimental data pooled from the literature", "note": "Compare with care: the assays were run in different laboratories. ± marks the error that the study gave."}
{"Compound": "CSCC[C@@H]1NC(=O)[C@H](CC(=O)O)NC(=O)CNC(=O)[C@H](CCCNC(=N)N)NC(=O)[C@H](C)NC(=O)[C@H](CCC(=O)O)NC(=O)[C@H](CCCNC(=N)N)NC(=O)[C@@H]2CSSC[C@@H]3NC(=O)[C@H](CO)NC(=O)[C@H]([C@@H](C)O)NC(=O)[C@@H]4CCCN4C(=O)[C@H](C)NC(=O)[C@H](Cc4c[nH]c5ccccc45)NC(=O)[C@H](CC(=O)O)NC(=O)CNC(=O)[C@H](CCCNC(=N)N)NC(=O)CNC(=O)[C@H](CCC(N)=O)NC(=O)[C@@H]4CCCN4C(=O)[C@@H](NC(=O)CNC(=O)C(C)F)CSSC[C@H](NC(=O)CNC(=O)[C@H](C)NC(=O)[C@H](CC(C)C)NC(=O)[C@H](CSSC[C@@H](C(=O)NCC(N)=O)NC(=O)[C@H]([C@@H](C)O)NC(=O)[C@H](CCCNC(=N)N)NC(=O)[C@@H]4CCCN4C1=O)NC(=O)[C@H](CC(=O)O)NC(=O)[C@H](CO)NC(=O)[C@H](CC(=O)O)NC(=O)[C@H](CCC(N)=O)NC(=O)[C@H](CO)NC3=O)C(=O)N[C@@H](C(C)C)C(=O)N2 (stereo partly drawn) [fluorine-18 labelled]", "test system": "nude mice U-87 MG xenograft, pancreas", "conditions": "intravenous, 1 h", "endpoint": "tissue uptake", "result": "0.22 ± 0.02 %ID/g"}
{"Compound": "Cc1ccc(Nc2ccc3c(c2)C(c2ccccc2F)=NC(C)C(=O)N3)c(C)c1 (stereo not drawn)", "assay": "shake flask", "test system": "PBS", "conditions": "24 h, pH 7.4", "endpoint": "solubility", "result": "1.38 µM"}
{"Compound": "CNC(=O)c1ccc(-c2cnn3ccc(C(=O)N(C)c4ccc(Cl)c(C(=O)OC)c4)cc23)cc1", "test system": "neonatal calf, uninfected healthy, plasma", "conditions": "oral, 10 mg/kg, 0 to 12 h", "endpoint": "AUC(0-t)", "result": "0.33 µM·h"}
{"Compound": "CCCCCOc1ccc(-c2cc(-c3ccc(C(=O)N[C@H]4C[C@@H](O)[C@@H](O)NC(=O)[C@@H]5[C@@H](O)[C@@H](C)CN5C(=O)[C@H]([C@H](O)CC(N)=O)NC(=O)[C@H]([C@H](O)[C@@H](O)c5ccc(O)c(OS(=O)(=O)O)c5)NC(=O)[C@@H]5C[C@@H](O)CN5C(=O)[C@H]([C@@H](C)O)NC4=O)cc3)no2)cc1", "test system": "human paediatric patients 2 to 5 years, plasma", "conditions": "intravenous, 4.5 mg/kg once daily, day 7, median", "endpoint": "AUC(0-tau)", "result": "248000 ng·h/mL"}
{"Compound": "CS(=O)(=O)CCCn1c(Cn2c(=O)n(CC(F)(F)F)c3ccncc32)cc2cc(Cl)ccc21", "test system": "RSV-infected infants", "conditions": "concentration not given, high dose cohorts", "endpoint": "patients with low MCH", "result": "0%"}
{"Compound": "NC(=O)c1nc(F)c[nH]c1=O", "assay": "UV-Vis spectrophotometry", "test system": "supercritical CO2", "conditions": "120 min, 328 K, 15 MPa, 654.94 kg/m^3", "endpoint": "solubility", "result": "141 µg/mL"}
{"Compound": "CCCCCCCC[N+](C)(C)Cc1ccccc1", "assay": "in vitro-in vivo extrapolation", "test system": "human", "endpoint": "hepatic clearance", "result": "9.45 mL/h/g liver"}
{"Compound": "CN[C@@](C)(C[18F])C(=O)O", "test system": "SCID mouse U87 xenograft, liver", "conditions": "120 min, post injection", "endpoint": "tissue uptake", "result": "5 ± 0.8 %ID/g"}
{"Compound": "Cc1cc(C)c(/C=C2\\C(=O)Nc3ccccc32)[nH]1", "test system": "human patients without enzyme-inducing anticonvulsants, plasma", "conditions": "intravenous, 145 mg/m^2, week 1", "endpoint": "terminal half-life", "result": "1.27 ± 0.41 h"}
{"Compound": "CC[C@H](C)[C@H](NC(=O)[C@@H](N)CCCNC(=N)N)C(=O)N[C@H](C(=O)N1CCC[C@H]1C(=O)N[C@@H](C)C(N)=O)C(C)C", "test system": "healthy volunteers, both sexes, plasma", "conditions": "intravenous infusion, 6.5 mg/kg daily, day 7, multiple ascending dose", "endpoint": "AUC(0-t)", "result": "2110 ± 413 ng·h/mL"}
{"Compound": "CCCCCOc1ccc(-c2cc(-c3ccc(C(=O)N[C@H]4C[C@@H](O)[C@@H](O)NC(=O)[C@@H]5[C@@H](O)[C@@H](C)CN5C(=O)[C@H]([C@H](O)CC(N)=O)NC(=O)[C@H]([C@H](O)[C@@H](O)c5ccc(O)c(OS(=O)(=O)O)c5)NC(=O)[C@@H]5C[C@@H](O)CN5C(=O)[C@H]([C@@H](C)O)NC4=O)cc3)no2)cc1", "test system": "infants on ECMO, plasma", "conditions": "intravenous, 4 mg/kg every 24 h, 0 to 24 h, prophylactic arm", "endpoint": "AUC", "result": "74000 ng·h/mL"}
{"Compound": "CC[C@H](C)[C@H](N)C(=O)N[C@@H](CC(C)C)C(=O)N1CCC[C@H]1C(=O)N[C@@H](Cc1c[nH]c2ccccc12)C(=O)N[C@@H](CCCCN)C(=O)N[C@@H](Cc1c[nH]c2ccccc12)C(=O)N1CCC[C@H]1C(=O)N[C@@H](Cc1c[nH]c2ccccc12)C(=O)N[C@@H](Cc1c[nH]c2ccccc12)C(=O)N1CCC[C@H]1C(=O)N[C@@H](Cc1c[nH]c2ccccc12)C(=O)N[C@@H](CCCN=C(N)N)C(=O)N[C@@H](CCCN=C(N)N)C(N)=O", "test system": "sheep erythrocytes", "conditions": "15 µM, 1 h, pH 7.4", "scale": "relative to: water lysis", "endpoint": "hemolysis", "result": "4 ± 10%"}
{"note": "Repeated from above:"}
{"Compound": "CCCCCOc1ccc(-c2cc(-c3ccc(C(=O)N[C@H]4C[C@@H](O)[C@@H](O)NC(=O)[C@@H]5[C@@H](O)[C@@H](C)CN5C(=O)[C@H]([C@H](O)CC(N)=O)NC(=O)[C@H]([C@H](O)[C@@H](O)c5ccc(O)c(OS(=O)(=O)O)c5)NC(=O)[C@@H]5C[C@@H](O)CN5C(=O)[C@H]([C@@H](C)O)NC4=O)cc3)no2)cc1", "test system": "human paediatric patients 2 to 5 years, plasma", "conditions": "intravenous, 4.5 mg/kg once daily, day 7, median", "endpoint": "AUC(0-tau)", "result": "248000 ng·h/mL"}
